Assay results collected from several papers.
Lines come from different studies, so protocols differ. Several values in a cell are separate wells, animals, samples, runs or records. ± marks the error that the study gave.

With `CCCCCCCCCCCCCCCC[N+](C)(C)CCCCCCCCCCCCCCCC` the intrinsic clearance was 0.147 mL/h/mg protein (substrate depletion; human liver microsomes; 0.5 µM, 0 to 3 h, 37 °C, added: NADPH).
For `ClC=C(Cl)Cl`, “compartment 2 half-life” read 8.8 h and 2.54 h and 0.679 h and 4.3 h (human, venous blood; inhalation, 100 ppmv for 4 h).
With `Cc1cc(C(C#N)c2ccc(Cl)cc2)c(Cl)cc1NC(=O)c1cc(I)cc(I)c1O` (stereo not drawn) the Tmax was 45.8 ± 16.6 h (HPLC, non-compartmental; Corriedale lambs, parasitized, plasma; subcutaneous, 5 mg/kg, added: moxidectin 0.2 mg/kg subcutaneous).
`[123I]c1cncc(OC[C@@H]2CCN2)c1` has a tissue/plasma ratio of 11.8 (SPECT; human, parietal lobe; intravenous bolus, 8.6 mCi; reference: tissue over plasma).
`O=C(c1ccc(F)c(F)c1Nc1ccc(I)cc1F)N1CC(O)([C@@H]2CCCCN2)C1` — result for “treatment-related adverse events”: 0% (refers to: retinal detachment; human patients; oral, dose not given, dose escalation, suspension, grade G3).
With `COc1cc2c(c(OC)c1OC)-c1ccc(OC)c(=O)cc1[C@@H](NC(C)=O)CC2` the AUC(0-24) ratio was 109% (human, male, plasma; oral, 10 mg, added: allopurinol 300 mg; reference: combination over alone).
`CCCCCOc1ccc(-c2ccc(-c3ccc(C(=O)N[C@H]4C[C@@H](O)[C@@H](O)NC(=O)[C@@H]5[C@@H](O)[C@@H](C)CN5C(=O)[C@H]([C@@H](C)O)NC(=O)[C@H]([C@H](O)[C@@H](O)c5ccc(O)cc5)NC(=O)[C@@H]5C[C@@H](O)CN5C(=O)[C@H]([C@@H](C)O)NC4=O)cc3)cc2)cc1`: “patients with hepatic adverse events” 14% (adult patients; iv, dose not given, 3, during treatment).
`O[C@H]1CCCN[C@@H]1CCCn1cnc2c(Cl)c(Cl)ccc21` gave an AUC(0-tau) of 0.0943 µg·h/mL (healthy human volunteers, plasma; oral, 25 mg, day 1, multiple ascending dose).
With `Cc1cnc(C(=O)N[C@H]2CCCCC/C=C\[C@@H]3C[C@@]3(C(=O)NS(=O)(=O)C3CC3)NC(=O)[C@@H]3C[C@@H](Oc4nc5ccccc5c5ccccc45)CN3C2=O)cn1` the AUC(0-24) was 2.76 µg·h/mL (healthy human volunteers, plasma; oral, dose not given, added: escitalopram plus 2D regimen).
`Oc1cccc2ccccc12` gave a body length of 39 ± 0.3 mm (fish short-term reproduction; Oryzias latipes, female, water, flow-through; 258 µg/L, end of exposure).
`CN[C@@](C)(C[18F])C(=O)O` gave a tracer uptake of 2.3 %ID/g (mouse, bone; 2 h, tumour-bearing).
The tissue uptake of `CC(=O)N[C@H](CCCCNC(=O)C(C)F)C(=O)N[C@@H](CS)C(=O)N[C@@H](CS)C(=O)N[C@@H](CCC(=O)O)C(=O)N[C@@H](Cc1c[nH]cn1)C(=O)N[C@H](Cc1ccccc1)C(=O)N[C@@H](CCCNC(=N)N)C(=O)N[C@@H](Cc1c[nH]c2ccccc12)C(=O)N[C@@H](CS)C(=O)N[C@@H](CCCNC(=N)N)C(=O)N1CCC[C@H]1C(=O)N[C@H](C(N)=O)C(C)C` (stereo partly drawn) [fluorine-18 labelled] is reported as 0.8 ± 0.03 %ID/g (C57BL/6 mice, male, B16-F10 tumour, lung; intravenous, 2 h).
